Literature values that unrelated publications cite.
Lines come from different studies, so protocols differ. “And” joins repeats or separate records; there may be more than shown. ± marks the error that the study gave. In brackets after ≈: the same amount, converted by molar mass.
Sequence of UniProt Q9UM73 (whole entry, unmodified, looked up): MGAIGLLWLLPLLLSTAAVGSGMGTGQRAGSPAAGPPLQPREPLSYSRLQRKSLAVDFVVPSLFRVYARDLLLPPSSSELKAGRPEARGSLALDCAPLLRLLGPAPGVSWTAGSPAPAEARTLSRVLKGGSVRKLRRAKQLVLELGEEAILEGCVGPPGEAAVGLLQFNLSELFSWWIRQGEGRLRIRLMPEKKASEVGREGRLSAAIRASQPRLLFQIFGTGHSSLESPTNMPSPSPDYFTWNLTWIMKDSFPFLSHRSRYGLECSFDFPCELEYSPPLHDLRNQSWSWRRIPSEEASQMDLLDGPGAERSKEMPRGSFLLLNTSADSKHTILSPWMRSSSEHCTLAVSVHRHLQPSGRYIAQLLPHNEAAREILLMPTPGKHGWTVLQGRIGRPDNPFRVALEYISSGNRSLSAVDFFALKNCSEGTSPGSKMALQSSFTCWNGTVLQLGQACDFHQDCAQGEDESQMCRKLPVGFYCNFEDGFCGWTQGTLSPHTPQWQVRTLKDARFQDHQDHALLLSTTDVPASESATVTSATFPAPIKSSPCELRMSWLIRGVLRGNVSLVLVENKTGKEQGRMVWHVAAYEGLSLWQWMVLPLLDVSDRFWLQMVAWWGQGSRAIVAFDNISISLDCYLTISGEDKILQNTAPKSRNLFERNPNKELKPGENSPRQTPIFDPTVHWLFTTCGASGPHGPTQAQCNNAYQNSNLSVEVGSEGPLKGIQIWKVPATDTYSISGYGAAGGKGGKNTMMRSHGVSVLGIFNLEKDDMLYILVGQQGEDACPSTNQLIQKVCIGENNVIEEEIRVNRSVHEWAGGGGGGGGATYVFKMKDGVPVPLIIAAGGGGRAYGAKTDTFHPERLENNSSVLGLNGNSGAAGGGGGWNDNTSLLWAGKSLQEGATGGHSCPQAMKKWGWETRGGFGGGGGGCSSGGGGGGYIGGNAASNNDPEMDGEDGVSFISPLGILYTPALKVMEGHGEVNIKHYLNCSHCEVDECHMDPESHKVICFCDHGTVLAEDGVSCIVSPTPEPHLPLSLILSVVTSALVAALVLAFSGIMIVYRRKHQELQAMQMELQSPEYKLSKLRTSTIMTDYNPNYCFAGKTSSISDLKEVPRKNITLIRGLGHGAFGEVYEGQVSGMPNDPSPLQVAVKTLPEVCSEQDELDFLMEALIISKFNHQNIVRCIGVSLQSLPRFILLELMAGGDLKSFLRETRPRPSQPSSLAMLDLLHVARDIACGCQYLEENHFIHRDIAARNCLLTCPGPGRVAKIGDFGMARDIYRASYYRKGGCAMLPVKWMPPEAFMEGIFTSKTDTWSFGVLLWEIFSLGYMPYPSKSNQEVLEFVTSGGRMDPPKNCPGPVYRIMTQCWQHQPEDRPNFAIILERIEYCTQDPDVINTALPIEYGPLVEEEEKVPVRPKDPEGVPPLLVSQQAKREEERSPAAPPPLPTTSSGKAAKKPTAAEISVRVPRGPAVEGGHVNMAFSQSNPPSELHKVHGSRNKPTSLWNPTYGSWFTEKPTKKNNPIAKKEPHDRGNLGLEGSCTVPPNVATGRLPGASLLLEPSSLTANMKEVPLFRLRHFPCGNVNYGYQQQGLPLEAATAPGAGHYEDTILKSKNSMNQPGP

For `N[C@@H](CC(=O)N1CCn2c(nnc2C(F)(F)F)C1)Cc1cc(F)c(F)cc1F`, “parent recovered in urine” read > 80% (healthy human; oral, time not given; reference: dose).
The diarrhoea incidence of `C[C@]12C=CC(=O)C=C1CC[C@H]1[C@@H]3C[C@@H](O)[C@](O)(C(=O)CO)[C@@]3(C)C[C@H](O)[C@@]12F` is reported as 0% (human; concentration not given, clinical).
`NC(=O)N1c2ccccc2CC(=O)c2ccccc21` gave a crossover pressure of 175 to 195 bar (supercritical CO2).
For `O=C1Nc2ccc(Cl)cc2[C@@](C#CC2CC2)(C(F)(F)F)O1`, the solubility was 182 µg/mL (≈ 577 µM) (FaSSIF; literature value).
With `CCc1c2c(nc3ccc(OC(=O)N4CCC(N5CCCCC5)CC4)cc13)-c1cc3c(c(=O)n1C2)COC(=O)[C@]3(O)CC` the solubility was < 1000 µg/mL (water).
Under “decreased white cell count incidence”, `CCc1c(N(CC)C2CCOCC2)cc2oc(CN3CCCCC3)cc2c1C(=O)NCc1c(C)cc(C)[nH]c1=O` is recorded as 40% (patients; dose not given).
For `CCN1CCN(C(=O)c2ccc(-n3nc(-c4cccnc4)c4c3-c3sc(NC(C)=O)nc3CC4)cc2)CC1`, the oral bioavailability was < 5% (mouse).
`Cc1cn([C@H]2C[C@H](N=[N+]=[N-])[C@@H](CO)O2)c(=O)[nH]c1=O` gave an oral bioavailability of 86% (mouse).
`CC(C)C[C@H](NC(=O)[C@H](Cc1ccccc1)NC(=O)c1cnccn1)B(O)O` — result for “severe peripheral neuropathy incidence”: ≤ 23% (human patients; dose not given).
The GI50 of `C[C@H]1COCCN1c1nc(-c2cnc(N)cc2C(F)F)nc(N2CCOCC2)n1` is reported as 0.329 µM (MeWo).
`CCCCc1oc2ccccc2c1C(=O)c1cc(I)c(OCCN(CC)CC)c(I)c1` gave a crossover pressure of 180 to 210 bar (supercritical CO2).
With `CCCCN1CC[C@@H](CCC(O)c2cc(OCCC)nc3ccc(OC)cc23)[C@@H](CC)C1` (stereo partly drawn) the IC50 was 0.36 µM (Plasmodium falciparum; whole cell extended time; 3D7; 72 h).
For `CN(CCOc1ccc(CC2SC(=O)NC2=O)cc1)c1ccccn1` (stereo not drawn), the Cmax was 1700 nM (plasma; concentration not given, total, steady state).
The MIC of `CC1(C)S[C@@H]2[C@H](NC(=O)[C@H](N)c3ccccc3)C(=O)N2[C@H]1C(=O)O` is reported as > 16 µg/mL (Pseudomonas aeruginosa; clinical isolate RKI-No_21/12).
Under “grade ≥3 anemia incidence”, `CN(C)C(=O)c1cc2cnc(Nc3ccc(N4CCNCC4)cn3)nc2n1C1CCCC1` is recorded as 3% (patients; dose not given, monotherapy).
`C#Cc1cccc(Nc2ncnc3cc(OCCOC)c(OCCOC)cc23)c1` gave a solubility of < 1000 µg/mL (water).
The MIC of `CNC(C)C1CCC(N)C(OC2C(N)CC(N)C(OC3OCC(C)(O)C(NC)C3O)C2O)O1` (stereo not drawn) is reported as > 8 µg/mL (Pseudomonas aeruginosa; clinical isolate RKI-No_393/11).
With `CN(C)CCC[C@@]1(c2ccc(F)cc2)OCc2cc(C#N)ccc21` the CL/F was 16.3 L/h (population PK, sparse sampling; human patients up to sample A years).
For `Cn1c(=O)c2c(ncn2C)n(C)c1=O`, the Vd was 40 to 50 L (human).
With `Cc1cc(-c2nccc3c2ccn3CC(=O)Nc2ccc(-c3cnccn3)cn2)ccn1` the Cmax, total was 640 nM (dog; 3 mg/kg/day, 1 month, repeat dosing).
For `Fc1ccc([C@@H]2CCNC[C@H]2COc2ccc3c(c2)OCO3)cc1`, the free Cmax was 14 nM (human).
For `CNCc1cc(-c2ccccc2F)n(S(=O)(=O)c2cccnc2)c1`, the Ctrough was 4.49 ng/mL (human, plasma; 40 mg multiple dose, observed clinical data).
With `O=C(c1cc(Cc2n[nH]c(=O)c3ccccc23)ccc1F)N1CCN(C(=O)C2CC2)CC1` the AUC(0-24 h) was 1060 ng·h/mL (male rat; dose not given, after 4 weeks daily dosing, at NOAEL).
`CCCc1nc2c(C)cc(-c3nc4ccccc4n3C)cc2n1Cc1ccc(-c2ccccc2C(=O)O)cc1` has a Cmax of 1200 nM (plasma; concentration not given, total, steady state).
`C[C@@H](O)[C@H]1C(=O)N2C(C(=O)O)=C(S[C@@H]3CN[C@H](C(=O)N(C)C)C3)[C@H](C)[C@H]12`: “serum concentration reduction” 89% (perpetrator, measured: valproic acid; human, serum; dose not given; reference: without compound).
For `Cc1cc(C)c(CNC(=O)c2cc(Cl)c3c(c2C)O[C@@](C)([C@H]2CC[C@H](N(C)C)CC2)O3)c(=O)[nH]1`, the AUC(0-inf) was 10300 ng·h/mL (human; oral, 200 mg single dose, geometric mean).
`C#C[C@]1(O)CC[C@H]2[C@@H]3CCc4cc(O)ccc4[C@H]3CC[C@@]21C`: “Cmax, geometric mean” 0.101 ng/mL (human, fed; 0.035 mg, multiple doses).
With `COc1ccccc1OCC(O)CN1CCN(CC(=O)Nc2c(C)cccc2C)CC1` (stereo not drawn) the elimination half-life was 1.4 to 1.9 h (human adults; immediate-release preparation).
`NC(=O)N1c2ccccc2C=Cc2ccccc21` has a solubility of < 1000 µg/mL (water).
`Nc1ccn([C@H]2CC[C@@H](CO)O2)c(=O)n1` gave an oral bioavailability of 74% (human; 0.5 mg/kg).
For `NC(=O)c1cn(Cc2c(F)cccc2F)nn1`, the solubility was < 1000 µg/mL (water).
`CCC(=O)NC[C@@H]1C[C@H]1c1cccc2c1CCO2` has a free Cmax of 23.5 nM (plasma).
Under “grade 3-4 thrombocytopenia incidence”, `Nc1ccn([C@@H]2O[C@H](CO)[C@@H](O)C2(F)F)c(=O)n1` is recorded as 9% (metastatic pancreatic cancer patients; dose not given).
`O=c1cc(-c2ccccc2)oc2cc(O)c(O)c(O)c12` — result for “well-tolerated dose range”: 200 to 800 mg (human; oral).
The two-electron potential of `Cc1cc2nc3c(=O)[nH]c(=O)nc-3n(C[C@H](O)[C@H](O)[C@H](O)COP(=O)(O)O)c2cc1C` is reported as -205 mV (aqueous solution; unbound, ox/hq couple).
`Clc1cc2nc(c1)CNCCNCCNC2` has a pCu of 16.2 (aqueous solution; Cu(II) 1 µM, ligand 10 µM).
For `CC(C)=CCc1cc2c(cc1O)O[C@H](c1ccc(O)cc1)CC2=O`, the Tmax was 1 h (rat, plasma).
`Cn1c(=O)oc2ccc(-c3ccc(C[C@@H](C#N)NC(=O)[C@@H]4CNCCCO4)cc3)cc21` — result for “dental adverse event incidence”: “no effect” (human; 25 mg, phase II; reference: placebo).
`CN(C)C(=O)c1cc2cnc(Nc3ccc(N4CCNCC4)cn3)nc2n1C1CCCC1` gave a dose excreted of 69.1% (human, feces; oral, 600 mg, radiolabelled; reference: dose).
With `Cc1cn([C@H]2C=C[C@@H](CO)O2)c(=O)[nH]c1=O` the oral bioavailability was > 80% (human; 2.67 mg/kg).
The plasma half-life of `Cc1c(OCC(F)(F)[18F])ccnc1C[S+]([O-])c1nc2ccccc2[nH]1` (stereo not drawn) is reported as ~1.5 h.
`Nc1cc(C(F)(F)F)c(-c2nc(N3CCOCC3)nc(N3CCOCC3)n2)cn1` has a remaining activity of 95% (ALK tyrosine kinase receptor (ALK, Homo sapiens, UniProt Q9UM73, C1156Y); enzyme activity; 10 µM; reference: untreated).
The half-life of `O=C(CCC(C(=O)[O-])N1CCN(C(CCC(=O)NCC(O)CO)C(=O)[O-])Cc2cccc(n2)CN(C(CCC(=O)NCC(O)CO)C(=O)[O-])CC1)NCC(O)CO.[Gd+3]` (stereo not drawn) is reported as 1.73 ± 0.26 h (0.1 mmol/kg).
For `CC(C)(C)c1cc(C(C)(C)C)c(NC(=O)c2c[nH]c3ccccc3c2=O)cc1O`, “fraction unbound in enterocytes” read 0.279 (human).
For `CC(C)NCC(O)COc1cccc2ccccc12` (stereo not drawn), the free Cmax was 956 nM (plasma).
With `O=C1NC(=O)C(c2ccccc2)(c2ccccc2)N1` the solubility was 39.6 µg/mL (≈ 157 µM) (FaSSIF; literature value).
The free Cmax of `C#Cc1cccc(Nc2ncnc3cc(OCCOC)c(OCCOC)cc23)c1` is reported as 249 nM (human).
`c1ccc2c(c1)ccc1ccccc12`: “amount in tissue” 22.9 ng/well and 18.5 ng/well and 20 ng/well (zebrafish embryos, whole embryo; 445.6 ng/well, 48 hpf, single exposure).
With `C=CC(=O)N1CCC([C@@H]2CCNc3c(C(N)=O)c(-c4ccc(Oc5ccccc5)cc4)nn32)CC1` the AUC(0-last) was 2700 ng·h/mL (human; 320 mg once daily).
`Cc1cc(=O)c2cc(-c3ccc(OC(F)(F)F)cc3)ccc2[nH]1` has an IC50 of 0.48 µM (Plasmodium falciparum; whole cell extended time; 3D7; 72 h).
`C[Si]1(C)O[Si](C)(C)O[Si](C)(C)O[Si](C)(C)O[Si](C)(C)O1` gave a log KOW of 5.2 (HPLC retention correlation; 1-octanol/water; 25 °C).
`Cc1cn([C@@H]2C[C@@H](O)[C@H](CO)O2)c(=O)[nH]c1=O` has an oral bioavailability of 82% (mouse).
The solubility of `C[C@@H](O[C@H]1OCCN(Cc2n[nH]c(=O)[nH]2)[C@H]1c1ccc(F)cc1)c1cc(C(F)(F)F)cc(C(F)(F)F)c1` is reported as < 1000 µg/mL (water).
`COc1cc(O)c(C(=O)c2ccccc2)cc1S(=O)(=O)O` — result for “plasma fraction unbound”: 0.00942 (plasma).
